Measured values of several laboratories.
Several values in a cell are separate wells, animals, samples, runs or records. ± marks the error that the study gave.
UniProt P52564, sequence (whole entry, looked up): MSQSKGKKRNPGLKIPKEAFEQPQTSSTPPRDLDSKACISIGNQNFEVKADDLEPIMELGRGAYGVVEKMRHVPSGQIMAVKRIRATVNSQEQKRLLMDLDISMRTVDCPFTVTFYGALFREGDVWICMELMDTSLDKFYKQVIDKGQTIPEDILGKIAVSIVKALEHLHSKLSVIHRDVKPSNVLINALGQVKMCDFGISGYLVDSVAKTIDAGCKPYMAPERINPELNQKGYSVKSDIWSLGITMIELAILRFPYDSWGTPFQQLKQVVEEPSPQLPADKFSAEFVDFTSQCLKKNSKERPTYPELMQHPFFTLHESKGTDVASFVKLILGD

Cc1nn(-c2cccc(N)c2)c(=O)c2cnc(Nc3ccc(N4CCNCC4)cc3)nc12
IC50 (MAP2K6 (Homo sapiens, UniProt P52564); enzyme activity, inhibitor): > 10 µM

CC(C)C[C@@H](NC(=O)[C@@H](CC(C)C)NC(=O)[C@@H](CC(=O)O)NC(=O)[C@@H](CC(C)C)NC(=O)[C@@H](CC(C)C)NC(=O)[C@@H](CC(C)C)NC(=O)[C@H](NC(=O)[C@@H](CC(=O)O)NC(=O)[C@H](NC(=O)[C@H]1CCCN1C(=O)[C@@H](Cc1ccccc1)NC(=O)[C@@H](CC(C)C)NC(=O)[C@@H](CC(C)C)NC(=O)[C@@H](CC(=O)O)NC(=O)[C@@H](CC(C)C)NC(=O)[C@@H](Cc1ccc(O)cc1)NC(=O)[C@@H](C)NC(=O)[C@@H](CCCNC(=N)N)NC(=O)[C@@H](Cc1c[nH]c2ccccc12)NC(=O)[C@H]1CCCN1C(=O)[C@@H](CC(N)=O)NC(=O)[C@@H](CCC(N)=O)NC(=O)[C@@H](CC(=O)O)NC(=O)[C@@H](CC(=O)O)NC(=O)[C@@H](CSC1CC(=O)N(CCNC(=O)CN2CCN(CC(=O)O)CCN(CC(=O)O)CC2)C1=O)NC(=O)[C@@H](C)N)[C@H](C)O)[C@H](C)O)C(=O)N[C@H](Cc1c[nH]c2ccccc12)C(=O)O (stereo partly drawn) [fluorine-18 labelled]
tissue uptake (female C57BL/6 mice, B16-F10 melanoma, blood; intravenous, 1 h): 29.3 %ID/g

C[C@@H](O)[C@@H]1NC(=O)[C@H](CCCCN)NC(=O)[C@@H](Cc2c[nH]c3ccccc23)NC(=O)[C@H](Cc2ccc(O)cc2)NC(=O)[C@@H](NC(=O)[C@@H](Cc2ccccc2)NC(=O)CN2CCN(CC(=O)O)CCN(CC(=O)O)CCN(CC(=O)O)CC2)CSSC[C@@H](C(=O)N[C@H](CO)[C@@H](C)O)NC1=O [gallium-67 labelled]
tissue uptake (gamma counting; ICR mice, male, liver; iv, 11 kBq/mouse, 3 h): 0.32 ± 0.06 %ID/g

Cc1ncsc1-c1ccc(C(C)NC(=O)C2CC(O)CN2C(=O)C(NC(=O)CCCCCCCCCCN2CCCC(Nc3ncc(Cl)c(Nc4ccccc4S(=O)(=O)C(C)C)n3)C2)C(C)(C)C)cc1 (stereo not drawn)
log2 fold change (22Rv1; RNA-seq, measured: ZBTB42 mRNA; concentration not given; baseline: DMSO): -2.24

CCCC[C@H](NC(=O)COCCOCCNC(=O)CN1CCN(CC(=O)O)CCN(CC(=O)O)CC1)C(=O)N[C@H]1CC(=O)NCCCC[C@@H](C(N)=O)NC(=O)[C@H](Cc2c[nH]c3ccccc23)NC(=O)[C@H](CCCNC(=N)N)NC(=O)[C@@H](Cc2ccccc2)NC(=O)[C@H](Cc2c[nH]cn2)NC1=O [technetium-99m labelled]
tissue uptake (C57 mouse, skin; intravenous, 0.037 MBq, 4 h): 0.15 ± 0.08 %ID/g

CC(C)C[C@H](NC(=O)[C@H](Cc1ccc(O)cc1)NC(=O)[C@@H](CCCNC(=N)N)NC(=O)[C@@H](CO)NC(=O)[C@H](Cc1ccccc1)NC(=O)[C@H](CC1CCCCC1)NC(=O)[C@H](CC(=O)O)NC(=O)CN1CCN(CC(=O)O)CCN(CC(=O)O)CCN(CC(=O)O)CC1)C(=O)N[C@@H](Cc1c[nH]c2ccccc12)C(=O)N[C@@H](CO)C(=O)O [copper-64 labelled]
activity concentration (human, heart; concentration not given, 3 h): 1390 Bq/mL and 2480 Bq/mL and 1720 Bq/mL and 1530 Bq/mL and 1700 Bq/mL and 1230 Bq/mL

N#C[C@@H]1CC(F)(F)CN1C(=O)CNC(=O)c1ccnc2ccc(OCCCN3CCN(C(=O)CN4CCN(CC(N)=O)CCN(CC(N)=O)CCN(CC(N)=O)CC4)CC3)cc12
intact complex (iTLC; mouse serum; 72 h, 37 °C, lead-203-labelled): 100%

Nc1ncc(-c2cc(-c3cnn(CC(F)(F)F)c3)ncc2F)nc1C(=O)NC1CNCC(F)C1 (stereo not drawn)
remaining binding (PCTK1; KINOMEscan; 1 µM; baseline: DMSO control): 51%

C=C1CC[C@H](OCCCNC(=O)CCOCCOCCOCCOCCOCCOCCOCCOCCOCCOCCOCCOCCOCCOCCOCCOCCOCCOCCOCCOCCOCCOCCOCCOCCOCCOCCOCCOCCOCCOCCOCCOCCOCCOCCOCCOCCNC(=O)CCN2C(=O)CC(SC[C@H](NC(=O)[C@H](Cc3ccccc3)NC(=O)[C@H](CC(N)=O)NC(=O)[C@H](Cc3c[nH]cn3)NC(=O)[C@@H](NC(=O)[C@H](CC(=O)O)NC(=O)[C@H](CCC(N)=O)NC(=O)[C@H](CC(C)C)NC(=O)[C@H](CCCCN)NC(=O)[C@H](CCCCN)NC(=O)[C@H](CCCNC(=N)N)NC(=O)[C@H](CC(C)C)NC(=O)[C@H](Cc3c[nH]c4ccccc34)NC(=O)[C@H](CCC(=O)O)NC(=O)[C@@H](NC(=O)[C@H](CCCNC(=N)N)NC(=O)[C@H](CCC(=O)O)NC(=O)[C@H](CCSC)NC(=O)[C@H](CO)NC(=O)[C@H](CC(N)=O)NC(=O)[C@H](CC(C)C)NC(=O)[C@H](Cc3c[nH]cn3)NC(=O)[C@H](CCCCN)NC(=O)CNC(=O)[C@H](CC(C)C)NC(=O)[C@H](CC(N)=O)NC(=O)[C@H](Cc3c[nH]cn3)NC(=O)[C@H](CCSC)NC(=O)[C@H](CC(C)C)NC(=O)[C@H](CCC(N)=O)NC(=O)[C@@H](NC(=O)[C@H](CCC(=O)O)NC(=O)[C@H](CO)NC(=O)[C@@H](NC(=O)[C@@H](N)CO)C(C)C)[C@@H](C)CC)C(C)C)C(C)C)C(=O)O)C2=O)C/C1=C/C=C1\CCC[C@]2(C)[C@@H]([C@H](C)CCCC(C)(C)O)CC[C@@H]12 (stereo partly drawn)
bioavailability (rat, plasma; subcutaneous, 100 µg/kg, single dose): 10.7%

COC1CN([C@H]2CC[C@H]([C@@]3(C)Oc4c(Cl)cc(C(=O)NCc5c(SC)cc(C)[nH]c5=O)c(C)c4O3)CC2)C1
log2 fold change (RNA-seq, measured: PDCD1LG2 mouse homolog; mouse, HT-1376 xenograft, whole blood; dose not given; baseline: vehicle): 0.665

C=CC(=O)Nc1cccc(Cn2ncc3cnc(Nc4cnn(CCOC)c4)nc32)c1
percent of control (HASPIN human; binding, KINOMEscan; 100 nM; lower = stronger binding): 74%

N#C[C@@H]1CC(F)(F)CN1C(=O)CNC(=O)c1ccnc2ccc(OCCCN3CCN(C(=S)Nc4ccc(C[C@H]5CN(CC(N)=O)CCN(CC(N)=O)CCN(CC(N)=O)CCN5CC(N)=O)cc4)CC3)cc12
intact complex (iTLC; human serum; 72 h, 37 °C, lead-203-labelled): 100%

CCCC[C@H](NC(=O)CCCCCCCNC(=O)CN1CCN(CC(=O)O)CCN(CC(=O)O)CC1)C(=O)N[C@H]1CC(=O)NCCCC[C@@H](C(N)=O)NC(=O)[C@H](Cc2c[nH]c3ccccc23)NC(=O)[C@H](CCCNC(=N)N)NC(=O)[C@@H](Cc2ccccc2)NC(=O)[C@H](Cc2c[nH]cn2)NC1=O [technetium-99m labelled]
tissue uptake (C57 mouse, pancreas; intravenous, 0.037 MBq, 2 h): 0.03 ± 0.04 %ID/g

N#C[C@@H]1CC(F)(F)CN1C(=O)CNC(=O)c1ccnc2ccc(OCCCN3CCN(C(=S)Nc4ccc(C[C@H]5CN(Cc6ccccn6)CCN(Cc6ccccn6)CCN(Cc6ccccn6)CCN5Cc5ccccn5)cc4)CC3)cc12
intact complex (iTLC; human serum; 72 h, 37 °C, lead-203-labelled): 100%

CC(C)C[C@H](NC(=O)[C@@H](CCCCNC(=O)[C@@H](Cc1ccccc1)NC(=O)CCCCCNC(=O)CN1CCN(CC(=O)O)CCN(CC(=O)O)CCN(CC(=O)O)CC1)NC(=O)[C@H](Cc1ccc(O)cc1)NC(=O)[C@H](CO)NC(=O)[C@H](Cc1c[nH]c2ccccc12)NC(=O)[C@H](Cc1c[nH]cn1)NC(=O)[C@@H]1CCC(=O)N1)C(=O)N[C@@H](CCCNC(=N)N)C(=O)N1CCC[C@H]1C(=O)NCC(N)=O [indium-111 labelled]
tissue uptake (female athymic nude mice, heart; intravenous, 0.037 MBq, 1 h): 0.17 ± 0.13 %ID/g

Some of these lines once more:
CC(C)C[C@H](NC(=O)[C@H](Cc1ccc(O)cc1)NC(=O)[C@@H](CCCNC(=N)N)NC(=O)[C@@H](CO)NC(=O)[C@H](Cc1ccccc1)NC(=O)[C@H](CC1CCCCC1)NC(=O)[C@H](CC(=O)O)NC(=O)CN1CCN(CC(=O)O)CCN(CC(=O)O)CCN(CC(=O)O)CC1)C(=O)N[C@@H](Cc1c[nH]c2ccccc12)C(=O)N[C@@H](CO)C(=O)O [copper-64 labelled]
activity concentration (human, heart; concentration not given, 3 h): 1390 Bq/mL and 2480 Bq/mL and 1720 Bq/mL and 1530 Bq/mL and 1700 Bq/mL and 1230 Bq/mL
